Experimental data of several laboratories.
Numbered parts are unrelated; each lists some results of a single study. Substitutions count along the parent as printed.

Set 1 — target: CCND1, cyclin fold, Cln2 fusion (human); technique: yeast growth competition, sequencing; matrix: yeast; notes: strong parent motif; baseline: not given; direction: higher = stronger binding
Starting sequence: E2F2 docking peptide (human); LPAKRKLDLEGIG; partner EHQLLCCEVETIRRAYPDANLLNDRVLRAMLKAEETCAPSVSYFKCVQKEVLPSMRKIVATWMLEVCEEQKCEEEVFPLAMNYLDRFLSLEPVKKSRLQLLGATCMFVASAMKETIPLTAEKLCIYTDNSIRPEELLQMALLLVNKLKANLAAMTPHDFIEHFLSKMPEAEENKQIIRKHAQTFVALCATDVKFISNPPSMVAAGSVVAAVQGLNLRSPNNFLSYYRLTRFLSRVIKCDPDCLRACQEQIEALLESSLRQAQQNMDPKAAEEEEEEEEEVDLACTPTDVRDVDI
`D8A`: “normalised enrichment score” -0.0613.
For `P2A`, “normalised enrichment score” read 0.221.
For `L9A`, “normalised enrichment score” read -0.25.
`G13A` — result for “normalised enrichment score”: 1.57.
`K6A` — result for “normalised enrichment score”: 0.391.
Under “normalised enrichment score”, `E10A` is recorded as 0.312.
`R5K`: “normalised enrichment score” -0.0928.

Set 2 — technique: RNA Bind-n-Seq; molecule type: RNA; matrix: in vitro; concentration: 365 nM; baseline: no-protein control; direction: higher = stronger binding
Target: RNA binding protein fox-1 homolog 2, RRM domain, GST-SBP tag (RBFOX2, Homo sapiens, UniProt O43251-10, residues 100-194)
Notes: natural RNA segment, single round, ends assumed
Target sequence (chain): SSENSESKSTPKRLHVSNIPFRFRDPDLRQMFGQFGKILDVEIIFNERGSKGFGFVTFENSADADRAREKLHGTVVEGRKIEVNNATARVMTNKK
`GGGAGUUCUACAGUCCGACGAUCGAAGGCGCUUGCUGUGGCCGCAGACCGUUCUCCAGGACUCUUUUUUUACCUUGAGCACUUGCCUCCUCAGACUUUUAGACCAGUGGUUUACUGUGCCCUUUCUUCCCAUCUGGAAUUCUCGGGUGCCAA` — result for “RBNS enrichment (R)”: 1.02.
`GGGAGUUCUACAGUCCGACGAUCUCUUGUGGGACCCUGGGAUGUUUGGGGACUUUACUAUCUAGCACCCCAGUAGGCCUGUCCUGGCCAGAGAAGACUGGUAGGGGCCGAGUGGGGUUUGAAGGCAGCCGGCCUGGAAUUCUCGGGUGCCAA` — result for “RBNS enrichment (R)”: 0.64.
For `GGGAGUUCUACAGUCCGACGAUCGCCUUGCUUCCUGAAGCUCUUCGGCUGACCUCCUCUUGGGAUCAGAGAUCUCCAAAACUAAGCCUUCAAAAACACAUUCGUGAAAAAGACUGAGUCCUCCAGAUCCCUGGUGGAAUUCUCGGGUGCCAA`, “RBNS enrichment (R)” read 0.236.
Under “RBNS enrichment (R)”, `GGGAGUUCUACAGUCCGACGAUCACAUCCUGAUUUCACUGCCUCAGAUGUGCCUGGCCACAAAGCACUCUGAACUAAUUCCUAAAGAGAAGCAACAAUAUGUGUAUGUGGGGGGGUUGAUCACAUACAUGUACUGGAAUUCUCGGGUGCCAA` is recorded as 0.833.
`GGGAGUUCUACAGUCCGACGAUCGAGCAGCUCCUUGAAGAGAUUUACCUUCAGCUUAUUUGGUAACCACUGCUAAUAACUAAAAUGUUCUCAGCUUGGAAUAAUGGACUCUGAAGUCUCUAUUUUCCAAGUUGUGGAAUUCUCGGGUGCCAA`: “RBNS enrichment (R)” 0.317.
Under “RBNS enrichment (R)”, `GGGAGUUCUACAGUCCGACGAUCUUCUAUGUUUAAUGCUUUACUAAUUUCCAGUAAGACUAUAUUUAAAACUACAUAGUCUUUCCUUAUUUUAUUUAGUAUGACAUUGUCAAUAGUAAUAAGGUAGCAUUUCUUGGAAUUCUCGGGUGCCAA` is recorded as 0.431.
`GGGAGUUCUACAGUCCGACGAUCAGUGUAAAAUUUAAUUCAAAAUGGUGGCUAUAAUCACUACAGAUAAAUUUCAUACUCUUUUGUCUUUGGAGAUUCCAUUGUGGACAGUAAUACGCAGUUACAGGGUGUAGUGGAAUUCUCGGGUGCCAA`: “RBNS enrichment (R)” 0.361.
`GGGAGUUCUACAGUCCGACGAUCCCCUGUCCCACCACUCUCAGAGAGGGUGUACCUGUCAAACUGGAUGGCCUACAUAGGUACUCCCCCCUACCCCUAGGAUGCAGAGAGACGGGAACACGCCGGAGGGUAGAUGGAAUUCUCGGGUGCCAA` — result for “RBNS enrichment (R)”: 0.6.

Set 3 — technique: protein binding microarray; molecule type: double-stranded DNA, one strand shown; matrix: in vitro; concentration: not given; baseline: not given; direction: higher = stronger binding
Target: Histone acetyltransferase KAT6A, both winged helices, GST fusion (KAT6A, Homo sapiens, UniProt Q92794, residues 1-181)
Notes: 8-mer, flanks averaged, mean of 2 arrays, mostly near background
Target sequence (chain): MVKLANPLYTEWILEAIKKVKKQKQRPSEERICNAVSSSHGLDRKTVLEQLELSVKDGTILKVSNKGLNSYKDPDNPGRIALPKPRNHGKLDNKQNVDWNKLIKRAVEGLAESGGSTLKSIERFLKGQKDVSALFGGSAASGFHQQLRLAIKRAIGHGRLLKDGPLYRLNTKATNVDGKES
`GCAGTCTA` has an E-score of -0.146.
With `AGCCGAGG` the E-score was 0.0295.
For `AACTAAGG`, the E-score was -0.102.
With `TGTTGGAA` the E-score was -0.184.
`CCCTCCAC` gave an E-score of -0.211.
For `CATTTACC`, the E-score was -0.149.
With `CGGACTCA` the E-score was 0.2.
The E-score of `GGTGACAC` is reported as 0.027.
`CGTTAATC` has an E-score of 0.2.
`GGGGCACA` gave an E-score of -0.149.
`GCTATCGA` has an E-score of 0.135.
With `CTTAAAGC` the E-score was -0.108.
The E-score of `GCTGGCCA` is reported as -0.0828.
`AACAGCAT` gave an E-score of -0.00821.
`ATATGGTG` gave an E-score of 0.0228.
`AATGGTGG` has an E-score of -0.181.
`ACACCCGT` has an E-score of 0.205.

Set 4 — technique: DHFR PCA, deep sequencing; matrix: yeast; with: (+)-ABA 710 µM; baseline: wild-type fitted maximum; direction: higher = stronger binding
Target: ABI1, truncated, D143A, DHFR fusion (Arabidopsis thaliana)
Notes: methotrexate growth selection, single substitutions
Starting sequence: PYL1, truncated, DHFR fusion (Arabidopsis thaliana); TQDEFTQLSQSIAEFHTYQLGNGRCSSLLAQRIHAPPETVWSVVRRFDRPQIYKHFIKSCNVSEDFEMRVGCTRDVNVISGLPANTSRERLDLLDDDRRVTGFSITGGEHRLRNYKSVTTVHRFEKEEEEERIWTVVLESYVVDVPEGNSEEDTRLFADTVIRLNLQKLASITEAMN; partner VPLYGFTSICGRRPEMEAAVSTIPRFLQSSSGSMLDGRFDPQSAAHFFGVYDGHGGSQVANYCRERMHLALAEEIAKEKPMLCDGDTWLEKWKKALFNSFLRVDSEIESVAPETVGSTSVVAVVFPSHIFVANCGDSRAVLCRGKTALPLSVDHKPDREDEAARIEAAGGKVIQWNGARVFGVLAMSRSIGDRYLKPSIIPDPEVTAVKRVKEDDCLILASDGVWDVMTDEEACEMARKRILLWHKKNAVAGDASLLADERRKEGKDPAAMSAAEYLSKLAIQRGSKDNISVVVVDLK
`S63F`: “relative binding score” 91.7%.
Under “relative binding score”, `E125W` is recorded as 96.1%.
Under “relative binding score”, `N61S` is recorded as 103%.
`K168Y`: “relative binding score” 86.8%.
`S9E`: “relative binding score” 108%.
`Y115S` — result for “relative binding score”: 6.53%.
Under “relative binding score”, `D144H` is recorded as 78.3%.
`N177E` — result for “relative binding score”: 80.1%.
Under “relative binding score”, `I12D` is recorded as 57.9%.
`D159L` — result for “relative binding score”: 27.1%.
`W134Y` — result for “relative binding score”: 116%.
Under “relative binding score”, `A30K` is recorded as 105%.
`T173Y` — result for “relative binding score”: 72.9%.

Set 5 — target: NFE2L1, bZIP domain (human); technique: DHFR protein complementation; matrix: yeast; baseline: wild-type JUN-FOS pair; direction: higher = stronger binding
Notes: single substitutions, most at no-binding floor
Starting sequence: JUN, bZIP domain (human); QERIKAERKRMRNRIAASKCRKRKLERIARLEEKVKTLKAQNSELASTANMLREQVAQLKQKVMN; partner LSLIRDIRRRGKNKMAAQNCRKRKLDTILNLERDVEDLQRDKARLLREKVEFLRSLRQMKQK
`R53L` has a binding fitness of -1.44 natural log.
`A57L` gave a binding fitness of -1.55 natural log.
With `Q55Y` the binding fitness was -1.68 natural log.
`V56Q` has a binding fitness of -1.55 natural log.
`A57S` gave a binding fitness of -1.53 natural log.
`K34R` has a binding fitness of -1.38 natural log.
With `S47C` the binding fitness was -1.47 natural log.
`K34H` gave a binding fitness of -1.32 natural log.
With `L52V` the binding fitness was -1.52 natural log.
`A46W` gave a binding fitness of -1.54 natural log.
`A40S` gave a binding fitness of -1.22 natural log.
For `A57W`, the binding fitness was -1.28 natural log.
The binding fitness of `K34L` is reported as -1.1 natural log.
`M51V` gave a binding fitness of -1.32 natural log.
`T37M` has a binding fitness of -1.51 natural log.
With `L52T` the binding fitness was -1.64 natural log.
`S47P` gave a binding fitness of -1.49 natural log.
The binding fitness of `A46T` is reported as -1.54 natural log.
`R53T` has a binding fitness of -1.27 natural log.
`K34Q` has a binding fitness of -1.32 natural log.

Other studies, line by line
With `PhoQ, residues 284 288 289 292 302 303 DDMDFR` the fold induction was 0.821 (PhoP, residues 12 14 15 18 19 FWNTL (Escherichia coli, UniProt P23836); Sort-seq, measured: YFP reporter; E. coli; PhoQ-PhoP variant library, with: 10 µM Mg2+; baseline: high Mg2+ state, higher = stronger signaling).

Repeated from above (set 5):
`A40S` gave a binding fitness of -1.22 natural log.
`A57L` gave a binding fitness of -1.55 natural log.
`T37M` has a binding fitness of -1.51 natural log.
`S47P` gave a binding fitness of -1.49 natural log.
`A46W` gave a binding fitness of -1.54 natural log.
`K34Q` has a binding fitness of -1.32 natural log.
The binding fitness of `A46T` is reported as -1.54 natural log.
`V56Q` has a binding fitness of -1.55 natural log.
